Experimental data gathered from unrelated publications.
A part holds a random share of what one study measured. Positions count from the first letter of the parent shown.

Set 1
Target: NFE2L2, bZIP domain (human)
Technique: DHFR protein complementation
Sample: yeast
Notes: single substitutions, most at no-binding floor
Relative to: wild-type JUN-FOS pair
Reading: higher = stronger binding
Parent: JUN, bZIP domain (human); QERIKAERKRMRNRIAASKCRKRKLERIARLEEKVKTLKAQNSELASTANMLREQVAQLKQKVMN; partner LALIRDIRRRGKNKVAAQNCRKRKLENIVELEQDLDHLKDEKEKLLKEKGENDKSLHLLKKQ
The binding fitness of `K36P` is reported as -1.5 natural log.
`E32N` has a binding fitness of -1.49 natural log.
The binding fitness of `R53H` is reported as -1.52 natural log.
With `K39S` the binding fitness was -1.49 natural log.
The binding fitness of `E32C` is reported as -1.49 natural log.
For `A49W`, the binding fitness was -1.26 natural log.
For `K34A`, the binding fitness was -1.47 natural log.
`R53N` gave a binding fitness of -1.43 natural log.
With `A46T` the binding fitness was -1.2 natural log.
`Q41G` has a binding fitness of -1.5 natural log.
`E54Y` gave a binding fitness of -1.4 natural log.
The binding fitness of `R53M` is reported as -1.47 natural log.
`A40Q` has a binding fitness of -1.31 natural log.
`R53I` gave a binding fitness of -1.57 natural log.
For `A40L`, the binding fitness was -1.42 natural log.
For `A49D`, the binding fitness was -1.54 natural log.
`N42H` gave a binding fitness of -1.5 natural log.

Set 2
Target: CCND1, cyclin fold, Cln2 fusion (human)
Technique: yeast growth competition, sequencing
Sample: yeast
Notes: weak parent motif
Relative to: not given
Reading: higher = stronger binding
Parent: CDKN1B docking peptide (human); PSACRNLFGPVDH; partner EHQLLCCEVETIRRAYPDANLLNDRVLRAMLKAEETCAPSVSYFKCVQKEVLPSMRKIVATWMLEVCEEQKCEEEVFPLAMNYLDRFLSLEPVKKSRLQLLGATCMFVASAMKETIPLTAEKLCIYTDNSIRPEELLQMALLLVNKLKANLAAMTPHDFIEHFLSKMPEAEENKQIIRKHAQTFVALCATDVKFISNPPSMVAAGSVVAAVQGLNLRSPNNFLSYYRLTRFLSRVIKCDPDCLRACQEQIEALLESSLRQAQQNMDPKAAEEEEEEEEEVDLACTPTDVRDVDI
`PSRCRNLFGPVDH [A3R]`: “normalised enrichment score” 0.105.
`PSACRNLFGKVDH [P10K]` — result for “normalised enrichment score”: 0.267.
`PSACRNLFGAVDH [P10A]`: “normalised enrichment score” 0.421.
Under “normalised enrichment score”, `PSACSNLFGPVDH [R5S]` is recorded as 0.24.
`PSACCNLFGPVDH [R5C]`: “normalised enrichment score” 0.27.
`PSACRNLFGPEDH [V11E]` — result for “normalised enrichment score”: 1.24.
For `PSACRNLFGPADH [V11A]`, “normalised enrichment score” read 0.455.
`HSACRNLFGPVDH [P1H]` — result for “normalised enrichment score”: 0.802.
For `PLACRNLFGPVDH [S2L]`, “normalised enrichment score” read 0.616.
`PSACRNLFGPVMH [D12M]` — result for “normalised enrichment score”: 0.451.
`PSYCRNLFGPVDH [A3Y]` — result for “normalised enrichment score”: 0.0597.

Set 3
Target: Interferon regulatory factor 7, full length, phosphomimetic (IRF7, Homo sapiens, UniProt Q92985, residues 1-503, S471D/S472D/S475D/S476D/S477D/S483D/S484D/S487D)
Sequence of UniProt Q92985 (whole entry, unmodified, looked up): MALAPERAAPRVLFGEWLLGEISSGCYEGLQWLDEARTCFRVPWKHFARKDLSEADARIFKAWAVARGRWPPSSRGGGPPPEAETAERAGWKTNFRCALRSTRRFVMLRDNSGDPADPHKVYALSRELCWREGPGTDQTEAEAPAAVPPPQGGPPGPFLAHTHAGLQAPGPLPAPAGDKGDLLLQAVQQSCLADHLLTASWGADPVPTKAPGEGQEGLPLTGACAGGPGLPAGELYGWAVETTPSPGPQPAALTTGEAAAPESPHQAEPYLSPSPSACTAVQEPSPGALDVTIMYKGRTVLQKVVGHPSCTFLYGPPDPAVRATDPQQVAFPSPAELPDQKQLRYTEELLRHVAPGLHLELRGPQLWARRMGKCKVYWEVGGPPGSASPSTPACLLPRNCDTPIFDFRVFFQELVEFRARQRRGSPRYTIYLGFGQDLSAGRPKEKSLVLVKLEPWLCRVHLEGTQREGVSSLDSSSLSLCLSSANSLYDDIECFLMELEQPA
Technique: protein-binding microarray
Form: double-stranded DNA, one strand shown
Sample: in vitro
Concentration: 2200 nM top
Notes: 60-bp whole probe
Added: salmon DNA 0.4 mg/ml
Relative to: random background probes
Reading: higher = stronger binding
All sequences stand within: GCCTAGCAC … GTCTTGATTCGCTTGACGCTGCTG
Under “fitted relative affinity”, `TTAGGACTGGGGTTTAGGTTAGTGCTA` is recorded as -0.271 z-score.
`TTAGTTCTCAGTCTCGATTAGTGCTAG`: “fitted relative affinity” 1.16 z-score.
`GACGGTATCGGGTTTCGGAACGTGCTA`: “fitted relative affinity” 2.11 z-score.
For `GACGAACTGAGTCTCGAGATGTGCTAG`, “fitted relative affinity” read 0.076 z-score.
For `TTTGAACTGAGACTGGATTAGTGCTAG`, “fitted relative affinity” read -0.514 z-score.
`GACGGACTGGACACTTGGGACGTGCTA`: “fitted relative affinity” -0.645 z-score.
Under “fitted relative affinity”, `TTAGCACTGAGTATCGATTAGTGCTAG` is recorded as -0.233 z-score.
`GACGTTTTCCTTTCCCTGACGTGCTAG`: “fitted relative affinity” 5.09 z-score.
`GACGGTTCCCTTTTACTGACGTGCTAG` — result for “fitted relative affinity”: 2.73 z-score.
`GCGCCTGTAGCCCCTCCAGGGTGCTAG`: “fitted relative affinity” -0.433 z-score.
For `TTAGGTTTCGGATTCGGTTAGTGCTAG`, “fitted relative affinity” read 8.72 z-score.
Under “fitted relative affinity”, `TTAGGTTTCGACAATGGGTTAGTGCTA` is recorded as 1.44 z-score.
For `TTAGGCTTCGACTATCGGTTAGTGCTA`, “fitted relative affinity” read -0.185 z-score.
`TCATTTCTCCTTTCCAAACTGTGCTAG` — result for “fitted relative affinity”: 3.88 z-score.
For `CATCCGTTTCTTCTAGACTTGTGCTAG`, “fitted relative affinity” read 2.92 z-score.
`AGGATCCTGGGAGGGAGAGCGTGCTAG`: “fitted relative affinity” -0.131 z-score.
For `CCTCCCTCTCCCGGAGTTCCGTGCTAG`, “fitted relative affinity” read 0.452 z-score.
`TTAGGACTGGTCTATCGGTTAGTGCTA`: “fitted relative affinity” -0.407 z-score.
Under “fitted relative affinity”, `TCAATGATTTTTTTCATACTGTGCTAG` is recorded as 0.418 z-score.
For `TTAGCACTGGACACTGGGTTAGTGCTA`, “fitted relative affinity” read -0.655 z-score.
`GACGGTATCCTTCTTCTGACGTGCTAG`: “fitted relative affinity” 1.26 z-score.
Under “fitted relative affinity”, `TTAGGTTCCGGTTGCGGTTAGTGCTAG` is recorded as 2.49 z-score.

Set 4
Target: RING finger protein unkempt homolog, zinc fingers 1-6, GST-SBP tag (UNK, Homo sapiens, UniProt Q9C0B0, residues 30-357)
Technique: RNA Bind-n-Seq
Form: RNA
Sample: in vitro
Concentration: not given
Notes: RNA with constant flanks, human and mouse sites, ends assumed
Relative to: input RNA pool
Reading: higher = stronger binding
Residues (chain): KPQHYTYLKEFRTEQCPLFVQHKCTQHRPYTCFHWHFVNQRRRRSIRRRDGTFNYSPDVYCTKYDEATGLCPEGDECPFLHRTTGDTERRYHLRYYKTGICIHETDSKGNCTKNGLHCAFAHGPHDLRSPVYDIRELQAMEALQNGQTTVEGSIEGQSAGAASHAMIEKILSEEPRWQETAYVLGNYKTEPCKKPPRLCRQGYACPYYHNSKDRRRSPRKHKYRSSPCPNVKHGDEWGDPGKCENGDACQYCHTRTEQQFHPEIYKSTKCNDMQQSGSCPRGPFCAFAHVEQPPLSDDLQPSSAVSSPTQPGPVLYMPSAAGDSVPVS
For `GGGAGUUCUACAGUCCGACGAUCUCGGAUGCAGCAAUUGAGGCCAUGAACGGGCAGUACCUGUGUAACCGUCCUAUCACUGUGUCUUAUGCCUUCAAGAAGGACUCUAAGGGUGAACGCCAUGGCUCAGCAGCUGAAAGACUCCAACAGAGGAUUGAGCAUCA`, the bound/input enrichment was 0.112 ratio.
With `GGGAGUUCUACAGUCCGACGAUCGUAUGGUUACUAAAAAGUACCAGCAUGUUAACUUUAUUACAAUUUGUAUUACUUUCUCUGUAGUUCCUAAUGGAUUCAAUUACGGACUCUGGAUAUUUGCACUUAUGUACUUGAUACUGACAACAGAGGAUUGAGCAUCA` the bound/input enrichment was 0.461 ratio.
With `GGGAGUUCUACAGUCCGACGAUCGGGACGAUUCAUCUCUUUCGAAAGCCACAGAGAUCUUUUUUUGGAAAGUUACUACAGGAAUUUAGACUUGUCGCAGCUGACCGGAGGUCCUGGAAGAUCCUUCUGUUCGGUGCAAUCAACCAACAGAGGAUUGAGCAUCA` the bound/input enrichment was 0.138 ratio.
`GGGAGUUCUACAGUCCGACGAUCCGGCCGAGUUCAGUGUCCCUUGUUCAGGGCUCUUGAUAAUGUUUGACCCAGUGGCAACACUAGUAGACGACCUGAUUUUAAAGCUGACCUCAGCCUCUGCAUCUUCUCUCGAGUAGUCCCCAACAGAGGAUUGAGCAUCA` has a bound/input enrichment of 0.135 ratio.
With `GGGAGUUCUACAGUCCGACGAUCAAAGAACUGAUAGGAAAAAAAAUCCUCUGUCACUUUUUUUUUUAAAAAAAGAAAACCUUGUUUAGAUACAAAGUCUUGUAUAAAUUAUAAUUUUUAUUUAAUAAACCUAAAAUGCUCUGUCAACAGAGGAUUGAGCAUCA` the bound/input enrichment was 77.5 ratio.
With `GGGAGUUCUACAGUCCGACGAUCUGUAAAUUACCUUUACUGUGUGUACAUUUUUACUGUAUUUGAGACAUUUUUUUGUGUGUGACUAGUUAAUUUUGCAGGAUGUGCCAUAUCAAUUGAACGGAACUAAAGUCUGUGACAGUGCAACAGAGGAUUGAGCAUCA` the bound/input enrichment was 0.514 ratio.
The bound/input enrichment of `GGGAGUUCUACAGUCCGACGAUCGUUGGCUUGUCGGAUGAACUGGCUAAACUGGAUGCAUUUGUAGAAGGUGUGGUCAAGAAAGUGGCUCAGUACAUGGCUGAUGUGCUGGAGGACAGCAAAGAUAAAGUUCAGGAGAACUUGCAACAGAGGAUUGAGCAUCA` is reported as 0.178 ratio.
With `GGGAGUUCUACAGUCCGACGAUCAAAUUCUACAAACAAGUUAUUGAUAAAGGCCAGACAAUUCCAGAGGACAUCUUAGGGAAAAUAGCAGUUUCUAUUGUAAAAGCAUUAGAACAUUUACAUAGUAAGCUGUCUGUCAUUCACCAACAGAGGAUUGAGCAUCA` the bound/input enrichment was 0.677 ratio.
`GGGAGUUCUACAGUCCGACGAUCGCAAUGGCUGCGGCUGCAGCAGCUUCUCACCUGAACCUGGAUGCCCUCCGGGAAGUGCUAGAAUGUCCCAUCUGCAUGGAGUCCUUCACUGAAGAGCAGCUGCGACCCAAGCUGCUGCACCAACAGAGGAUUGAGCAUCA` has a bound/input enrichment of 0.0743 ratio.
With `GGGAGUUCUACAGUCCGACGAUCAUCACUUUGACCCAGAUUGUGUGACAUACACCUGAGAGGAAUUGAGGGAGUAUUGGUGUCUAGGUUGUCAUGUUUCUGUUUUGUGACACAGUGGAUGGAAAGGUUUGUCCUCUUCCUACUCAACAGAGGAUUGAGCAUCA` the bound/input enrichment was 0.126 ratio.
`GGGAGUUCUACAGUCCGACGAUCAAUUUUCUUACUGGCCAGAGUUCUUGGUGGAGAAGUUGCAUAUGGCCAAGUCCUUGGAGUUAUAGGAUAUUCAUUACUUCCUCUCAUUGUAAUAGCCCCUGUACUUUUGGUGGUUGGAUCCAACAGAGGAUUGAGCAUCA` has a bound/input enrichment of 0.754 ratio.

Excerpt of the above (set 2):
`HSACRNLFGPVDH [P1H]` — result for “normalised enrichment score”: 0.802.
`PSACCNLFGPVDH [R5C]`: “normalised enrichment score” 0.27.
Under “normalised enrichment score”, `PSACSNLFGPVDH [R5S]` is recorded as 0.24.
`PSACRNLFGPEDH [V11E]` — result for “normalised enrichment score”: 1.24.
`PSACRNLFGPVMH [D12M]` — result for “normalised enrichment score”: 0.451.
`PSYCRNLFGPVDH [A3Y]` — result for “normalised enrichment score”: 0.0597.
`PSACRNLFGKVDH [P10K]` — result for “normalised enrichment score”: 0.267.
